# Measured values from different studies.
# Numbered parts are unrelated; each lists some results of a single study.

# Block 1
# Target: RNA binding protein fox-1 homolog 2, RRM domain, GST-SBP tag (RBFOX2, Homo sapiens, UniProt O43251-10, residues 100-194)
# Technique: RNA Bind-n-Seq
# Molecule type: RNA
# Sample: in vitro
# Tested at: 365 nM
# Notes: natural RNA segment, single round, ends assumed
# Baseline: no-protein control
# Direction: higher = stronger binding
# Shared flanks, not repeated: GGGAGUUCUACAGUCCGACGAUC … UGGAAUUCUCGGGUGCCAA
# Construct (chain): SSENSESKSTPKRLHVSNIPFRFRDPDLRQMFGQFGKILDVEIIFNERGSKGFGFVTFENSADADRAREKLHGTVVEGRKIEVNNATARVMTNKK
Strand,RBNS enrichment (R)
AGUCUUCAGGCAGCAUGGCCAAGGUGAAGGAGCGACUUUGAGAUGCUCAUGGAAUCCAGUCGAGCAGAAGUUUCGGACAGCCCACCACAUCACCAUGUUCCUUGUUAACA,1.37
UGCUCUGACUGGCUCCCCUUCCAGACUGCCUUUUCUGGCCUUUCUGGGGUUCCCUGUUGGUGCCACAGGGCACUUCCUUAAAACCAGUACUGUACCAGAAAACUGAGGGU,0.312
UGUCGUAAUAAAAGCCUCAGUGCAGCUUCUUCCUGCAGUUCACAUCUUGAUGCUAGGAUGCUCCUGGUACUAACUAAACAUUGGCAGUUCACAUCCCAGACACCAGGGGU,0.296
UCGUAGAGAGAAUCAAGGCUACCAUGUGUUUUCUCAUGAGUCAGAAGAUGGCUCAGGAAGCCACUGUCACGGUUCCUGGAGGCUGGGCCCUCUCAUUGACAUGUACACUA,0.502
AGUGAGGCAUGUGCUGCACGUCCCUGUCGUACUUAGAGACCUGGCCGGUGCCCUGCGCGGGGCCUCCCCAGGACACACUGACGUAGAUUUGCUGUGUAGUCUUGGUGUGG,1.78
UCCUAAAGUAUUUGUUUUUAUUUGUACCAUCCACUUGUGCCUUACUGUAUCCUGUGUCAUGUCCAAUCAGUUGUAAACAAUGGCAUCUUUGAACAGUGUGAUGAGAAUAG,1.61
UAAUUGGUUUGUAUAUGUUUGUGAGAUCUAGCUUCUGAGGAAUCUCAUACAUAGUAGGAACCAUCAUAGAGUAAAGCUUGUAGCAGAAAAAUUGGAAGGGUUUUGAGAUA,1.87
CGAGGGCUCCAGGUGCUAUCUUAGGUGGACACAGCCCUGGGGGCUCCUUCCAGGAGGGGACCCUCAGCCCUGUGCCCCCCACCACUUCAGGCCACACCAGGUUCCCUCUG,0.159
GAGGGCACAACACUUUCAUUCAGCAAAAUCGUUUGUGUUCCAGUCACACUGUGGGCACCUCUUGCAUCGCCUGCCAUUGCUGUGGAGGGUGGCCAUGGGCCAAAGGAAAA,1.41
AAUAGUAACAUUUACCUGUCCACUGUGAAUCAAAGCCUGGGGCACGCUACUCAACCUUAGACACACUUACAGGCUUUUAUUUUGAUUGUGUUAUUUUAUUUUCCAUACAG,0.741
AGAGGUCCGUGGGGGAGGCCGUGGGCAAAGGUGUCCCGAGCUGCCAUGUUUAGGAAACACACUGUACCCUGCUCCCAGCAUCACAAGGCACUUGUCUACAAGUGUGUCCC,1.49
AUUUGUACCAGUUUGUAUUAAAGUCAGUACUACCAGCACUUUGCCAAAACUACGGAUGUCAGAGGGACCUGUUUCUAGAGUGAGUCCCAAUUACAUCAAAGGGCAACCUG,0.323

# Block 2
# Target: Fragile X messenger ribonucleoprotein 1, C-terminal low-complexity region (Fmr1, Mus musculus, UniProt P35922)
# Technique: RNA Bind-n-Seq
# Molecule type: RNA
# Sample: in vitro
# Tested at: 200 nM
# Notes: whole 134-nt RNA, ends assumed
# With: 150 mM LiCl
# Baseline: input library
# Direction: higher = stronger binding
# All molecules: 7-deaza-guanosine replaces G
# Shared flanks, not repeated: GGGAGUUCUACAGUCCGACGAUC … UGGAAUUCUCGGGUGUCAAGG
Strand,log2 enrichment
GCAGGAAGUAAAAACAAAUGGAAAUGCUUCGGAUAGUGGCAGGGGUGGGGGUUGCUAAGGAAAGGGUGGGAUGGGAGUGGGUAAAGAGUA,1.63
AGUCCUGUGCUACACAUCGUAUGUACCGAAUCGGUUUUUUUGGAAAGGUUUUUUUGGAAAGUAUUAUGUUACGCCGUUCGGAUCUGCACU,-2.95
CACAGACAACACGCACCCACACAGACACAGAGGGAAGGGGUUGGGAUGGGGACAGGGUGAAAAGCAGGGCGGGGUAGGACCCCAGCCCCU,-0.112
AAGUCCUGUGCUACACAUCGUAUGUACCGAAUCGGGGUGGGGAGGGGUUUUUGGGGAAAGUAUUAUGUUACGCCGUUCGGAUCUGCACUU,-0.757
UGGCCCUGGUGGCAUGCGGGGAGGAAGAGGUGGCCUCAUGGAUCGUGGGGGUCCCGGUGGAAUGUUCAGAGGUGGCCGUGGUGGAGACAG,0.0553
UCCUGUGCUACACAUCGUAUGUACCGAAUCAAAUUUUUAAAUUUUUUUAAAUUUUUAAAAAAGUAUUAUGUUACGCCGUUCGGAUCUGCA,-1.88
GUCCUGUGCUACACAUCGUAUGUACCGAAUCGGAAAAAAAGGAAAAAAAGGAAAAAGGAAAGUAUUAUGUUACGCCGUUCGGAUCUGCAC,-0.879
AAGUCCUGUGCUACACAUCGUAUGUACCGAAUCGGUUUUUUUGGAAAAAAAGGUGGAAAGUAUUAUGUUACGCCGUUCGGAUCUGCACUU,-3.37
GCAGGAAGUAAAAACAAAUGGCAAUGCUUCGGAUAGUGGCAGGGGUGGGGGUUGCUAAGGAAAGGGUGGGAUGGGAGUGGGUAAAGAGUU,1.79
UCAAGUCCUGUGCUACACAUCGUAUGUACCGAAUCGGAAAGGGGAAAGGAAAGGGAAAGUAUUAUGUUACGCCGUUCGGAUCUGCACUUC,-0.63
GCAGGAAGUAAAAACAAAUGGAAAUGCUUCGGACAGUGGCAGGGGUGGGGGUUGCUAAGGAAAGGGUGGGAUGGGAGUGGGUAAAGAGUU,1.39

# Block 3
# Target: Interferon regulatory factor 5, full length, phosphomimetic (IRF5, Homo sapiens, UniProt Q13568-2, residues 1-514, K96S/S451D/S453D/S456D/S462D)
# Technique: protein-binding microarray
# Molecule type: double-stranded DNA, one strand shown
# Sample: in vitro
# Tested at: 250 nM
# Notes: 60-bp whole probe
# With: salmon DNA 0.4 mg/ml
# Baseline: random background probes
# Direction: higher = stronger binding
# Shared flanks, not repeated: GCCTAGCAC … GTCTTGATTCGCTTGACGCTGCTG
Strand,log fluorescence [z-score]
TCATTTTTAGCTTGCAAACTGTGCTAG,0.466
GACGGTATCGGTATCGGGTCGTGCTAG,7.32
TTAGGTATCCTACGGCTTTAGTGCTAG,-0.151
TCATGTATATACTATATGACTGTGCTA,0.705
TTAGAACTGGGGTATGGATTAGTGCTA,0.00956
TTAGGTATCGGGATTGGGTTAGTGCTA,2.48
TCAATTCTCATTTCCAAACTGTGCTAG,1.14
GACGGTTTCGACCATCGGGACGTGCTA,5
TTCGCTTTCTTTAACTCATTGTGCTAG,2.35
GTAGATATCAGTCTCGATTAGTGCTAG,1.99
TTAGATTTCAGTCTAGATTAGTGCTAG,2.55
TTAGGTATCCTTTTCCTTTGGTGCTAG,0.421
GACGGTTTCGACTATCGGAACGTGCTA,7.58
GTAGAAAATTCATGTTATAAGTGCTAG,0.51
GACGGTATCCTTATCCTTACGTGCTAG,0.301
TCAAAGCTTCCTCTCTGACTGTGCTAG,-0.042
GATGTTTTTCATTTTTTTTCGTGCTAG,2.29
ATGAAATGCCACACACACACGTGCTAG,0.0474
GACGAACTGAGTATCGATACGTGCTAG,6.77
GACGGACTGCTTATCCAGACGTGCTAG,-0.423
TTAGGTTTCGGTCTCGGGTAGTGCTAG,10.4
TTCATTTTGTGTCTGGGCATGTGCTAG,0.405
GACGGACTGGGTCGCGGGACGTGCTAG,-0.654
TTAGAACTGAGACTGGATTAGTGCTAG,-0.268
GACGGTTTCCTTTTACTGACGTGCTAG,1.26

# Block 4
# Target: Histone acetyltransferase KAT6A, winged helix 1, GST fusion (KAT6A, Homo sapiens, UniProt Q92794, residues 1-85)
# Technique: protein binding microarray
# Molecule type: double-stranded DNA, one strand shown
# Sample: in vitro
# Tested at: not given
# Notes: 8-mer, flanks averaged, mean of 2 arrays, mostly near background
# Baseline: not given
# Direction: higher = stronger binding
# Target sequence (chain): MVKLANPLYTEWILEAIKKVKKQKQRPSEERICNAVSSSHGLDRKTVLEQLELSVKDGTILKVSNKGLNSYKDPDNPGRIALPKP
Strand,E-score
AATAGACT,-0.216
ACCAGCGT,-0.111
GAAATTTC,-0.0961
GGTCCCGA,0.229
ACCTAGAA,-0.191
GAATACAA,-0.0773
CCATAAAA,-0.146
ACGAAGCG,0.131
ACTCTTCA,-0.24
AAGTAACC,0.00626
AGTCGGAA,0.155
CGGTTTTA,0.109
TCGCATCA,0.0495
AGAAACGG,0.135
CACCTAAC,-0.181
CATATAGC,0.115
CCAATTGA,-0.175
CTCAAAAC,-0.164
ACTTGTAC,-0.0503

# Repeated from above (block 3):
Strand,log fluorescence [z-score]
TTAGGTATCCTTTTCCTTTGGTGCTAG,0.421
GACGGTTTCGACTATCGGAACGTGCTA,7.58
GTAGAAAATTCATGTTATAAGTGCTAG,0.51
GACGGTATCCTTATCCTTACGTGCTAG,0.301
TCAAAGCTTCCTCTCTGACTGTGCTAG,-0.042
GATGTTTTTCATTTTTTTTCGTGCTAG,2.29
ATGAAATGCCACACACACACGTGCTAG,0.0474
GACGAACTGAGTATCGATACGTGCTAG,6.77
GACGGACTGCTTATCCAGACGTGCTAG,-0.423
TTAGGTTTCGGTCTCGGGTAGTGCTAG,10.4
TTCATTTTGTGTCTGGGCATGTGCTAG,0.405
